Results collected from several papers.
Every numbered part comes from another study and shows a few of its results, in no order.

Sample 1
Target: Sal-like protein 4, full length isoform A (SALL4, Homo sapiens, UniProt Q9UJQ4, residues 1-1053)
Chain of UniProt Q9UJQ4 (whole entry, looked up): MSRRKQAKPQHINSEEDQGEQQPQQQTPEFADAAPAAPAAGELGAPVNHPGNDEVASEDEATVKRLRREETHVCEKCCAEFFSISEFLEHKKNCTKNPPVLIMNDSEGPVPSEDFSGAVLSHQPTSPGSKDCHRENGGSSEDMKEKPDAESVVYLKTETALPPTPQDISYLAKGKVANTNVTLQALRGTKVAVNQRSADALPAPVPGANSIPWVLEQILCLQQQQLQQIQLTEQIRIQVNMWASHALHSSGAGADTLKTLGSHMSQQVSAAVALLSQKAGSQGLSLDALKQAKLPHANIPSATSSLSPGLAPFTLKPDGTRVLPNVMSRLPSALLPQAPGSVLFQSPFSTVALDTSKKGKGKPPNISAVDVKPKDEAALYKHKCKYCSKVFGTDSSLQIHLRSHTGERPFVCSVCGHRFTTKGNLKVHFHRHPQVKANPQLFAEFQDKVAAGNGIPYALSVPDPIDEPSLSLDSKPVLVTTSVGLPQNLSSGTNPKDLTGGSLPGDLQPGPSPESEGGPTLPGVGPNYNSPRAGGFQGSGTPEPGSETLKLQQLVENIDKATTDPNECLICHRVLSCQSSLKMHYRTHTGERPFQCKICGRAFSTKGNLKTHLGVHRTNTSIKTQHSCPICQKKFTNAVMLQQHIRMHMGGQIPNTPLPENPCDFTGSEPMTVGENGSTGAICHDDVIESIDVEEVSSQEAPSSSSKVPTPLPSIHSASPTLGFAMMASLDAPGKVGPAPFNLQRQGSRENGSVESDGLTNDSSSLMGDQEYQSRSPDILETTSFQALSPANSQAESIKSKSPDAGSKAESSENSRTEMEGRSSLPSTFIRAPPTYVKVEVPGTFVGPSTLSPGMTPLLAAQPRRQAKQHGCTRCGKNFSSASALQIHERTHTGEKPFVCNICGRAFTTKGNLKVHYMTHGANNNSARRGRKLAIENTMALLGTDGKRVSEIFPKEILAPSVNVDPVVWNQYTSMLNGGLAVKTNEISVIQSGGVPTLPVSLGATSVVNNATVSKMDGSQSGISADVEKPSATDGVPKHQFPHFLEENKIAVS
Technique: universal PBM
Form: double-stranded DNA, one strand shown
Matrix: in vitro
Concentration: 600 nM
Setting: 8-mer, flanks averaged, mean of replicates
Reading: higher = stronger binding
Sequence	E-score
GTACTTTA	0.197
GTCCGGCA	-0.204
CCATTAAA	0.127
ACTTGTAA	0.25
CCCGGCCC	-0.422
GACTCTGA	0.0194
ATAGCTCG	-0.0517
CCACTTGA	0.0435
AATGGAGC	-0.0232

Sample 2
Target: RING finger protein unkempt homolog, zinc fingers 1-6, SBP tag (UNK, Homo sapiens, UniProt Q9C0B0, residues 30-357)
Chain of UniProt Q9C0B0 (30-357, looked up): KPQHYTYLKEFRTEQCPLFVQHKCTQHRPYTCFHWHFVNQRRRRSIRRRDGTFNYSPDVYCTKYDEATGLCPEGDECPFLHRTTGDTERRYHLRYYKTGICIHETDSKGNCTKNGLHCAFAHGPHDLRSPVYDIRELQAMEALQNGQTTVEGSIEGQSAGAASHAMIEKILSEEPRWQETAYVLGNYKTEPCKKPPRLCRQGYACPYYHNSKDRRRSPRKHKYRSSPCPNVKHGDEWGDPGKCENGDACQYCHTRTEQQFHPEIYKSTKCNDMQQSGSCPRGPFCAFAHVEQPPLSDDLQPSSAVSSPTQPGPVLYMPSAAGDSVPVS
Technique: RNA Bind-n-Seq
Form: RNA
Matrix: in vitro
Concentration: 100 nM
Setting: RNA with constant flanks, vertebrate orthologous sites, ends assumed
Reference: input RNA pool
Reading: higher = stronger binding
Sequence	bound/input enrichment
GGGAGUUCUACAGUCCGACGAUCCCGAAAGGCCAAAUUCCCUCCUCCCUUCUACUGCUUCUACCAACUGGAAGCACAGAAAACUAGAAUUUCAUUUAUUUUGUUUUUUAAAAAUAUAUGUUGAUUUCUUGUAACAUCCAAUAGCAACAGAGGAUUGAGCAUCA	0.479 ratio
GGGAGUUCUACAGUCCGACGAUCUUAAAUAUGUAUCAGAUGCUGGAUGUAACAUUGAACCAUCAUUUUAUAAUAGAUGUUAAUUUGUUAUAAUUAAGCUACAAAUAGGUUUCUUUAAACCAGAGAUACACUGCCCUUGUCUGACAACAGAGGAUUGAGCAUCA	0.195 ratio
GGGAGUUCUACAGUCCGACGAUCACGUAGAGAAAAAUCUCAUGGACCCCUCCCCCAAUUUGUGAAACUCCCUAGAAAUUUAUUUGGAAUCUUAAUUUUUCUAAUUCAGGCUCACUGCAUUAGUCAUUUUUAGCCCCUAAUUAACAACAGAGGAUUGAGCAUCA	2.06 ratio
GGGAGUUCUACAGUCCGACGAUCCUCCCUCCCAGGACUGAGCAGUGGGGCCUGGGCCCACUGGCCACAUCAGCCAGGCCAUUUUAGCUCCUUUUUUUUUUUUUUUAAACCGUGACCUUGUUAUCCUGUAUAUAAGUGGAGAUUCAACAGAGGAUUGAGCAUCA	2.02 ratio
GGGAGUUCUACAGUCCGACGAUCUCUACUGACCACUCACUAUUAUGUCUGGAUAUCUGUAAACACUUUUCUUUUUCUUCUUAGUCUUUUUCUUGUAUAAUUGAUGUUCUCUUAAAAUUGUUAAUGUAUCACAGGGCCGCUCUUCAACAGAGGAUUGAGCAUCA	1.92 ratio
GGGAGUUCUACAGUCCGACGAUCAAGAACAAGAGCAGCAUAGACUGAGCUUUGGGGAAAUGAGCUUUGCUUUUUAUAUUUAAAUAGAUACUUUUAUAUGAUGGGUGCUUUUGAGUGUGAAUGCAGCAGGCUCUCGCAUUUCAGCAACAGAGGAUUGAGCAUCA	1.56 ratio

Sample 3
Target: Hepatocyte nuclear factor 3-alpha (Foxa1, Mus musculus, UniProt P35582, residues 1-468, full length assumed)
Technique: EMSA with sequencing
Form: double-stranded DNA, one strand shown
Matrix: in vitro
Concentration: 10 and 20 nM
Setting: whole designed probe, mean of two concentrations, ends assumed
Reference: negative control set to 0
Reading: higher = stronger binding
Target sequence (chain): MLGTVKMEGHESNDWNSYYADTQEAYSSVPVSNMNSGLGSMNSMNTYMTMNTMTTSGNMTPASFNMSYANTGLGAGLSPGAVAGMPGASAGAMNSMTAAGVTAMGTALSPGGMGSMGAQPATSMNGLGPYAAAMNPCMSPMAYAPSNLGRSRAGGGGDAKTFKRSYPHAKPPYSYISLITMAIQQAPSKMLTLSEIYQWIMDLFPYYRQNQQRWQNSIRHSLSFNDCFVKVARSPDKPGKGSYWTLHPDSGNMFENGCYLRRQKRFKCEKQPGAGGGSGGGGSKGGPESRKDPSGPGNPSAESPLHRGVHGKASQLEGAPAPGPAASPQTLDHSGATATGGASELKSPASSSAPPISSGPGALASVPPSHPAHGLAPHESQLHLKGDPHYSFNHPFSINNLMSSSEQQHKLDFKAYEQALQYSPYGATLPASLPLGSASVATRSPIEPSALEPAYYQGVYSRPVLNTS
Sequence	normalised bound fraction
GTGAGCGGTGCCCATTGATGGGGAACCTGTTTATACTCCGAAGTTCTTTTCCCTTGATCTGTATAAGACACAATAGATGATAACAGCTGATTGAGAATAGTTAGTCTAGTGTATAAATATGTAATCTTGGGTAAGTATGTATTTAGACAATTTAAAAGTGTGTCTCATTTACCCAATTATAAACAGCTGTCTGAGAGCAATTACGATTTATCATGTAAATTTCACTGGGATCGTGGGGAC	0.0864 ratio
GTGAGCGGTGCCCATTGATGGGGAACATCTTCCCCCTCTTCCTTCACTCCCTCCCTAACCCCGGCGGGTTATTTGCAGATAGGAAAATAAATAAAGCCGGCATTCGTTAACCCTCTTCTGGCGCAAACTGCTGTTTGCTCTGGATGAATCATGGTCCTTTGGCGACGCCAGGCTCCGGGAGAGCAAAGCACCGTGTCAGGGCCATGATCCGGGGTGGCCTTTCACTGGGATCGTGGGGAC	0.312 ratio
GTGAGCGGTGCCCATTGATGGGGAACTGCTCTTACATATGAGTGATAATTGGGCTGGATATAGAATTCTAGGTTGGAAATATTTTTTCTTTAAAATGTTGAAGTCACTGTCCTGTTTTTTGTTTGCTTTTTTGTGGGATTTTCTCCCTGTGTGCTATTGAGACTTCTGAATTCATTCTAATTCCTGACTGTGGCATGTGACTTGTTTTTCTCCTTCCCTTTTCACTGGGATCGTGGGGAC	0.347 ratio
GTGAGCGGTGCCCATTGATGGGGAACTTATGTACTTGGAGCAGTTATAGGCACAGTATTTTATTTCCAAGAAAGCAGTGTAGAGGGGCCAAGTAGCATATAGATGGTATATTTAAAAAGTAATCTTGCAGTAAATACTTAGTACTCTCTGTACAGAATAAATGAAAATCCAACTCATTACAGATTAGAAAAATTATATGTGGATGGAAAGAACAGTTATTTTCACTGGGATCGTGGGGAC	-0.00255 ratio
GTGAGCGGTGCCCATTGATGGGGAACAGCGCAGCCTAGAGGAGATAGGTGATGCCTGAAGCCATGAGAAGGGGTGTTATCTCTGCAGGAAGAAGAATTGCAACACTCCTCCCAGCTGAGCAAACAGTCTGGGCTGGGATGTGAGTGGTATCACACTCTGCACTCACTTCCTCCTTCAGTGGTCATTTGAGAGTTCACTGGGGCTGACCTACCCCATTGGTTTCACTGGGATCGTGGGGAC	0.191 ratio

Single results of other studies
Substance	target	assay	system	conditions	how to read	endpoint	value
PhoQ, residues 284 288 289 292 302 303 TTSMTC	PhoP, residues 12 14 15 18 19 LHATL (Escherichia coli, UniProt P23836)	Sort-seq, refers to: YFP reporter	E. coli	PhoQ-PhoP variant library, added: 10 µM Mg2+	reference: high Mg2+ state, higher = stronger signaling	fold induction	6.37

Excerpt of the above (sample 2):
Sequence	bound/input enrichment
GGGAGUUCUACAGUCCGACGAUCCUCCCUCCCAGGACUGAGCAGUGGGGCCUGGGCCCACUGGCCACAUCAGCCAGGCCAUUUUAGCUCCUUUUUUUUUUUUUUUAAACCGUGACCUUGUUAUCCUGUAUAUAAGUGGAGAUUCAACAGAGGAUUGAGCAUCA	2.02 ratio
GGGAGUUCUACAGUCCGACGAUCAAGAACAAGAGCAGCAUAGACUGAGCUUUGGGGAAAUGAGCUUUGCUUUUUAUAUUUAAAUAGAUACUUUUAUAUGAUGGGUGCUUUUGAGUGUGAAUGCAGCAGGCUCUCGCAUUUCAGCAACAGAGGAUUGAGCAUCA	1.56 ratio
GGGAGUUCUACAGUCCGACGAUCUUAAAUAUGUAUCAGAUGCUGGAUGUAACAUUGAACCAUCAUUUUAUAAUAGAUGUUAAUUUGUUAUAAUUAAGCUACAAAUAGGUUUCUUUAAACCAGAGAUACACUGCCCUUGUCUGACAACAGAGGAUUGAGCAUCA	0.195 ratio
